Measured values collected from several papers.
Protocols differ between the studies behind these lines. ± gives the spread as reported.
TDP1: Tyrosyl-DNA phosphodiesterase 1 (TDP1, Homo sapiens, UniProt Q9NUW8)
UniProt Q9NUW8, sequence (whole entry, looked up): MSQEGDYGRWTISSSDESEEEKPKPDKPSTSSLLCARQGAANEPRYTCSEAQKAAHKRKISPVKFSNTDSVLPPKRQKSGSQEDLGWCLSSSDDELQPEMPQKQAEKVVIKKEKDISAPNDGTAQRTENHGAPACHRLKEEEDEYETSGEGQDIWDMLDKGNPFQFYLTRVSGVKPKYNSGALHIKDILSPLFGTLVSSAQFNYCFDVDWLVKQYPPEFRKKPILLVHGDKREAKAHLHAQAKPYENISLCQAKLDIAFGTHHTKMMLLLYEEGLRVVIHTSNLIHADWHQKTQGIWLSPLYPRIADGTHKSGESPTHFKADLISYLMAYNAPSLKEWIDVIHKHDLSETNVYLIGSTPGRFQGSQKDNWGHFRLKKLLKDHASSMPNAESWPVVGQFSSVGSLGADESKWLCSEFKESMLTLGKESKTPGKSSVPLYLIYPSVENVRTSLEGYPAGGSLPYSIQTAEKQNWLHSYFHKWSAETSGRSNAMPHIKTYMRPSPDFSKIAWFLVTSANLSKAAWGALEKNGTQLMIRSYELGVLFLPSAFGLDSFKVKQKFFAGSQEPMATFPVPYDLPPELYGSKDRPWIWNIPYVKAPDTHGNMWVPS
ppa: Inorganic pyrophosphatase (ppa, Escherichia coli, UniProt P0A7A9)
UniProt P0A7A9, sequence (whole entry, looked up): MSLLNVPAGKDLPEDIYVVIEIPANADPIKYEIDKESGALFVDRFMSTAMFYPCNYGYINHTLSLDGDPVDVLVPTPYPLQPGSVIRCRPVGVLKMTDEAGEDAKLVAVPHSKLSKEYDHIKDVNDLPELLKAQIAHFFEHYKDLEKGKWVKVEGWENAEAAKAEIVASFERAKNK
PIK3C2A: Phosphatidylinositol 4-phosphate 3-kinase C2 domain-containing subunit alpha (PIK3C2A, Homo sapiens, UniProt O00443)
TACR3: Neuromedin-K receptor (TACR3, Homo sapiens, UniProt P29371)
UniProt P29371, sequence (whole entry, looked up): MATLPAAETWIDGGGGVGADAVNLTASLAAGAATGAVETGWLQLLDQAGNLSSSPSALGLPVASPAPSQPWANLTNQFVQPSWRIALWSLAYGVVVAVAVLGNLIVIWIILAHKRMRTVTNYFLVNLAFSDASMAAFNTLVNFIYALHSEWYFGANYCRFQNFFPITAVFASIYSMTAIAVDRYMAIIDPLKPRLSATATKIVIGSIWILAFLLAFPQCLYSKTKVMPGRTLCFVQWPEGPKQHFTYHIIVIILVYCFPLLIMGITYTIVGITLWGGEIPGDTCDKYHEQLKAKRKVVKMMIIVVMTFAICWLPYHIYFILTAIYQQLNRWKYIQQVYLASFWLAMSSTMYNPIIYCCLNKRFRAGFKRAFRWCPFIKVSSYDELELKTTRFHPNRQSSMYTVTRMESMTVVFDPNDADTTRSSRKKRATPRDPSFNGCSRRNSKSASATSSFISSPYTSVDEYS
Uncharacterized protein: Uncharacterized protein (Trypanosoma brucei brucei, UniProt Q386Q8)
OfChi-h: Chitinase (OfChi-h, Ostrinia furnacalis, UniProt Q4AE59)
UniProt O75365, sequence (whole entry, unmodified, looked up): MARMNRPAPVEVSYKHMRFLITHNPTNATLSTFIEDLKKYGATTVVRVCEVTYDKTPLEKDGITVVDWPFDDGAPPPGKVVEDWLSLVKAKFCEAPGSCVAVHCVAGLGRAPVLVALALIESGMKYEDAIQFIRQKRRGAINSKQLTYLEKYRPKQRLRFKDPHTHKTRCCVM
UniProt Q9H9B1, sequence (whole entry, looked up): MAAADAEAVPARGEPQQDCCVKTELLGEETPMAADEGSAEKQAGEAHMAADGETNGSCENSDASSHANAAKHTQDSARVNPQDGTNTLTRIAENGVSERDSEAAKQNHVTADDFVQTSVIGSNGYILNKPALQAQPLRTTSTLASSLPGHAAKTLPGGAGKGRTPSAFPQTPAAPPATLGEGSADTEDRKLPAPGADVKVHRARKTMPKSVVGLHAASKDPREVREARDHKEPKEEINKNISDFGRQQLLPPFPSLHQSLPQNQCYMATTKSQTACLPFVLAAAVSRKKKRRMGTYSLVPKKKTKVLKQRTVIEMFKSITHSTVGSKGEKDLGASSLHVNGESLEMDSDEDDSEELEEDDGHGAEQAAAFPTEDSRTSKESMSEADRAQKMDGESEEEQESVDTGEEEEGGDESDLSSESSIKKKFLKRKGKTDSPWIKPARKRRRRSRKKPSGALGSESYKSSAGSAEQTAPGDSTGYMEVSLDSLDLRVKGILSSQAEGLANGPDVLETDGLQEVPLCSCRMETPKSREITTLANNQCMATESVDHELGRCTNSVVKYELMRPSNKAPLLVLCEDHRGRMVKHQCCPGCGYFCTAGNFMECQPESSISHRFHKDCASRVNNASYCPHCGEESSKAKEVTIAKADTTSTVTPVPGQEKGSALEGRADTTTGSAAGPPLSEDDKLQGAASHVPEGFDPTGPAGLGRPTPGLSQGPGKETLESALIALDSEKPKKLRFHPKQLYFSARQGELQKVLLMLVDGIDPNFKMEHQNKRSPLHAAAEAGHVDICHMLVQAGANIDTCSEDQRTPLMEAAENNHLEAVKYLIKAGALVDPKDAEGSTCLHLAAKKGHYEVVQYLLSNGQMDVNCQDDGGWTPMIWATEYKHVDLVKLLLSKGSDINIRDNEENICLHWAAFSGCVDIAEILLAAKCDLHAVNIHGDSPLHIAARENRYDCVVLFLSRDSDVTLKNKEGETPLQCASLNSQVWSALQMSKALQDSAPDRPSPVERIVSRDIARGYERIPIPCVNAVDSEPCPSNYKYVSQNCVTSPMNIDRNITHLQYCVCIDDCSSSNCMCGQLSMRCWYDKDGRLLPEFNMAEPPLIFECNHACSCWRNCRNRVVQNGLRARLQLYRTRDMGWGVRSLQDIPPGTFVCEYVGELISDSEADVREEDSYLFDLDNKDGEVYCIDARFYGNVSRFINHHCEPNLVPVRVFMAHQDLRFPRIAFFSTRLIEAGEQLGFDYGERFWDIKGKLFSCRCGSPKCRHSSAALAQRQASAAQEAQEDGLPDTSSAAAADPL
UniProt Q5U3Y7, sequence (whole entry, looked up): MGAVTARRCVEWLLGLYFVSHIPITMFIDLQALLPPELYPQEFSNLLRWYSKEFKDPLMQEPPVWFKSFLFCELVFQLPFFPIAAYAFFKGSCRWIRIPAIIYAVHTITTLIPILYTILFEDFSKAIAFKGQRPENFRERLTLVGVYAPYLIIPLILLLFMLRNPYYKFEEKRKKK
UniProt P10276, sequence (whole entry, looked up): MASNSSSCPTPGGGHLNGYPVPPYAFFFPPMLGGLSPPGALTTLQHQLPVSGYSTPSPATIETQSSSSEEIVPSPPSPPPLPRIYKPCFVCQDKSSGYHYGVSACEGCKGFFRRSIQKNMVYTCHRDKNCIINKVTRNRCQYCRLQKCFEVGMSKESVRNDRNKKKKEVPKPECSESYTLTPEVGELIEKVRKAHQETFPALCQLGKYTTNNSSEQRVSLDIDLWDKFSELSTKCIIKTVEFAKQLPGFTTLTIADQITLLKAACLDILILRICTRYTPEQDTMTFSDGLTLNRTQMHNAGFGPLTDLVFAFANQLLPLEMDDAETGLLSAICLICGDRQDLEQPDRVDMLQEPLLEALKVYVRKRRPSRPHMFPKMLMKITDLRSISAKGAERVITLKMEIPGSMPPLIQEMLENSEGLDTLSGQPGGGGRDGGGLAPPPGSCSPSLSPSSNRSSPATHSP
UniProt P07550, sequence (whole entry, looked up): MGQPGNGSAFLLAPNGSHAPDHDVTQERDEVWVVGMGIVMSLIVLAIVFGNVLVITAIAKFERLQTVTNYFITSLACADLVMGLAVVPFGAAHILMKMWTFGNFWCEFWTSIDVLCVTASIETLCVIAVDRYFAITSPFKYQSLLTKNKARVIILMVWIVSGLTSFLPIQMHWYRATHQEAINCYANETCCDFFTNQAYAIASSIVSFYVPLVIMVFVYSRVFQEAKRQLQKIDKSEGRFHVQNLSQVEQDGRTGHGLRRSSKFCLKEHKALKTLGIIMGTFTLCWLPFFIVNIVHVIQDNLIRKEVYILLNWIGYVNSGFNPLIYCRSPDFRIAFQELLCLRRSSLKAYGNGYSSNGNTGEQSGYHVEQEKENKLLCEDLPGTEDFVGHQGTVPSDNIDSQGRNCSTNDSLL
UniProt Q08499, sequence (whole entry, looked up): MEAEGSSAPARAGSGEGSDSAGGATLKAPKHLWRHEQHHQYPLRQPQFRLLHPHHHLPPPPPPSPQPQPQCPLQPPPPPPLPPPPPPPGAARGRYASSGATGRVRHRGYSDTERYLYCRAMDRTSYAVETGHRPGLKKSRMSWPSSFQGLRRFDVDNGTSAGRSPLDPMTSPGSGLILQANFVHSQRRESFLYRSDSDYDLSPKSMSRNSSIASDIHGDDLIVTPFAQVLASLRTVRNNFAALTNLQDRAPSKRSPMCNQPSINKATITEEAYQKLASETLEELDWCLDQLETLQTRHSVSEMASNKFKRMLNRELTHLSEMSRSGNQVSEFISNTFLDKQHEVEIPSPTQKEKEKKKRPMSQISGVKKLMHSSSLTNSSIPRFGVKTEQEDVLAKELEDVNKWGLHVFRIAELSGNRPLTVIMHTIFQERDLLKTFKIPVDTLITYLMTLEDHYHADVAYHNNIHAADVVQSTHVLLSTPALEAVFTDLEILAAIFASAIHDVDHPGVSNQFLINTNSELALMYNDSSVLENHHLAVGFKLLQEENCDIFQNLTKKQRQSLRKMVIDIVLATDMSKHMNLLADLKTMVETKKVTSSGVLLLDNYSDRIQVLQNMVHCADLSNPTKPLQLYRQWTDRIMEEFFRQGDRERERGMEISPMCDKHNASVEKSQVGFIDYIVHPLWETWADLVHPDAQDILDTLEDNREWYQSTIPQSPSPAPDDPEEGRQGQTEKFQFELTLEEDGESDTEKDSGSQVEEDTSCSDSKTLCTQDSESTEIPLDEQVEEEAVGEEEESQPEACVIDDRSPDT
UniProt Q6SA08, sequence (whole entry, looked up): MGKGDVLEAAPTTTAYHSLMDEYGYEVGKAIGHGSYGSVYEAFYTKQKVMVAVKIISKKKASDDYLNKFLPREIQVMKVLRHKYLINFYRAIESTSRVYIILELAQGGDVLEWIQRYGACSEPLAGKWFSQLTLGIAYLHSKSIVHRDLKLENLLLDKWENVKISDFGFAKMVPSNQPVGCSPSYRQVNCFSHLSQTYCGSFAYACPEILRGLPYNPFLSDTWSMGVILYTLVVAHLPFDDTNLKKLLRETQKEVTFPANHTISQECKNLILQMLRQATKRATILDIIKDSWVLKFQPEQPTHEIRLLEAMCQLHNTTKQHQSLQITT

Compound = O=C(O)c1ccc(Nc2c(-c3ccccc3)nc3ccc(CON=Cc4ccccc4OCc4cn5cccnc5n4)cn23)cc1; target = TDP1; test = enzyme activity, inhibitor; conditions = 100 µM, unpurified compound; inhibition = 9.7%
Compound = Cn1c(/C=C/c2cn(C)c3ccccc23)nc2ccccc2c1=O; target = ppa; test = inhibitor, counter-screen, coupling enzyme alone; conditions = 30 µM; inhibition = 25.5%
Compound = Cn1c(C=NOCc2ccc(-c3nc4cc(-c5ccccc5)ccn4c3Nc3ccc(C(=O)O)cc3)cc2)nc2cc([N+](=O)[O-])ccc21; target = TDP1; test = enzyme activity, inhibitor; conditions = 100 µM; inhibition = 79.9%
Compound = CN(Cc1ccc(/C=C/C(=O)NO)cc1)CC12CC3CC(CC(C3)C1)C2; target = human M2 receptor; test = antagonist radioligand binding; conditions = 0.05 µM; inhibition = -12%
Compound = CC(=O)C12NC(C)(C)CC1(C)C(=O)C1=C2c2c(c3c4n2C(C)(C)CC2=C4C4(CC(C)(C)NC(C)(C4)C2=O)CC3(C)C)C(=O)C(C)(C)N1 (single isomer, unassigned; (-)); target = CACNA1G (Homo sapiens, UniProt O43497); test = calcium current, antagonist, whole-cell patch clamp; system = HEK293T cells; conditions = 10 µM; inhibition = 3.81 ± 0.03%
Compound = CN(C)C/C=C/C(=O)Nc1ccc2nc(NCCCCCN(C)C)nc(NCCCCCCN(C)C)c2c1; target = EHMT1 (Homo sapiens, UniProt Q9H9B1); test = enzyme activity, inhibitor, radiometric; conditions = 10 µM; inhibition = 57%
Compound = O=C(O)c1ccc(Nc2c(-c3ccccc3)nc3ccc(CON=Cc4csc5ccccc45)cn23)cc1 (mixture of isomers); target = TDP1; test = enzyme activity, inhibitor; conditions = 100 µM, unpurified compound; inhibition = 0.4%
Compound = C=CC(=O)N1Cc2nc(-c3cc(-c4cc(Cl)cnc4Cl)c(F)cc3F)n(-c3ccncn3)c2C1; target = PIK3C2A; test = cell-free assay, inhibitor; conditions = 1 µM; inhibition = -4.5%
Compound = CN1CCN(Cc2ccc(-c3ccc(CO[C@H]4CCC[C@@H]4NC(=O)c4cc(-c5cnn(C)c5)cnc4N)cc3)cc2)CC1; target = PIK3C2A; test = enzyme activity, inhibitor; conditions = 0.1 µM; inhibition = 9%
Compound = C[N+](C)(CCCN1c2ccccc2CCc2ccc(Cl)cc21)CC(=O)c1ccccc1; target = ppa; test = inhibitor, counter-screen, coupling enzyme alone; conditions = 30 µM; inhibition = 32.8%
Compound = CN(C)c1ccc(C=NOCc2ccc(-c3nc4cc(-c5ccccc5)ccn4c3Nc3ccc(C(=O)O)cc3)cc2)cc1 (mixture of isomers); target = TDP1; test = enzyme activity, inhibitor; conditions = 100 µM, unpurified compound; inhibition = 40.9%
Compound = CC(=O)C1=C(C)Nc2ccccc2S1; target = ppa; test = inhibitor, counter-screen, coupling enzyme alone; conditions = 30 µM; inhibition = 31.5%
Compound = CC(C)Cn1c(SCC(=O)N2CCc3ccccc3C2)nc2cc(Cl)ccc2c1=O; target = sigma receptor 1; test = radioligand binding; conditions = 10 µM; inhibition = 7%
Compound = COc1ncc2nc(C)n(Cc3ncc(S(N)(=O)=O)cc3F)c2c1-c1ccccc1; target = PDE4D (Homo sapiens, UniProt Q08499); test = enzyme activity, inhibitor; conditions = 10 µM, safety panel; inhibition = -5.26%
Compound = C[Si](C)(C)C[C@@H](CN)CC(=O)O; target = TACR3; test = ligand displacement, radioligand; conditions = 75 µM; inhibition = -5%
Compound = O=C(O)c1ccc(Nc2c(-c3ccc(CON=Cc4[nH]ncc4Br)cc3)nc3cc(-c4ccccc4)ccn23)cc1 (mixture of isomers); target = TDP1; test = enzyme activity, inhibitor; conditions = 100 µM, unpurified compound; inhibition = 81.1%
Compound = O=C(NCCCCc1ccccc1)n1c(=O)oc2cc(-c3ccc(F)cc3)ccc21; target = monoacylglycerol lipase; test = enzyme activity; conditions = 10 µM; inhibition = 17.1%
Compound = O=C(O)c1ccc(Nc2c(-c3ccccc3)nc3ccc(CON=Cc4cc(Cl)ccc4OCc4cccnc4)cn23)cc1; target = TDP1; test = enzyme activity, inhibitor; conditions = 100 µM, unpurified compound; inhibition = 11.9%
Compound = CC(=O)c1cnc(N)nc1N1CC[C@H]1c1nn2ccc(Cl)c2c(=O)n1-c1ccccc1; target = TACR3; test = ligand displacement, radioligand; conditions = 10 µM; inhibition = 10%
Compound = Oc1ccc(C2NCCc3cc(O)c(O)cc32)cc1 (stereo not drawn); target = tyrosinase; test = enzyme activity, inhibitor; conditions = 100 µM, added: levodopa; inhibition = 40.5 ± 2.43%
Compound = CC(C)(C)OC(=O)C[N+](C)(C)CCCN1c2ccccc2CCc2ccc(Cl)cc21; target = ppa; test = inhibitor, counter-screen, coupling enzyme alone; conditions = 30 µM; inhibition = 42%
Compound = CC(C)NCCCn1c(Sc2cc3c(cc2I)OCO3)nc2c(N)ncnc21; target = Hsp90; test = tracer binding, autoradiography; system = human and mouse tumour sections; conditions = 10 µM, added: [11C]HSP990; inhibition = > 85%
Compound = CC1=NN(c2ccccc2F)C(=O)/C1=N\Nc1ccc(S(N)(=O)=O)cc1; target = bovine α-glucosidase; test = enzyme activity, inhibitor, glucose oxidase; conditions = 50 µg/mL, added: maltose; inhibition = 34.9%
Compound = C[N+](C)(CCCN1c2ccccc2CCc2ccc(Cl)cc21)Cc1ccccc1; target = Uncharacterized protein; test = enzyme activity, inhibitor, coupled colorimetric; conditions = 30 µM, added: E. coli pyrophosphatase coupling; inhibition = 41.7%
Compound = O=C1c2sc(-c3ccc(N4CCC(F)C4)nc3F)nc2CCN1c1cccnc1 (stereo not drawn); target = L-type Ca2+ channel, phenylalkylamine (verapamil) site; test = radioligand binding, BioPrint binding panel; conditions = 1 µM, added: antagonist radioligand; inhibition = 0%
Compound = OCc1ccc(C2NCCc3cc(O)c(O)cc32)o1 (stereo not drawn); target = tyrosinase; test = enzyme activity, inhibitor; conditions = 100 µM, added: levodopa; inhibition = 24.1 ± 2.41%
Compound = CN(C)c1nc(NCc2ccc(F)cc2F)c(/N=N/c2ccc(Cl)cc2)c(N(C)C)n1; target = OfChi-h; test = enzyme activity, inhibitor, fluorescence; conditions = 1 µM; inhibition = 90.1%
Compound = CC(=O)C1=C(c2ccc(OC(F)F)cc2)N(C(C)=O)n2cnnc2S1; target = ppa; test = inhibitor, counter-screen, coupling enzyme alone; conditions = 30 µM; inhibition = 33%
Compound = CN(C)c1nc(NCc2ccccc2F)c(/N=N/c2ccc(Cl)cc2)c(N(C)C)n1; target = OfChi-h; test = enzyme activity, inhibitor, fluorescence; conditions = 1 µM; inhibition = 91.1%
Compound = O=C(Nc1cccc(C(F)(F)F)c1)c1ccc(CSc2nnnn2-c2ccccc2)cc1; target = KCNT1 (Homo sapiens, UniProt Q5JUK3); test = ion current, inhibitor, patch clamp; system = HEK293; conditions = 10 µM; inhibition = > 40%
Compound = CO[C@@H](C)c1c(NC(=O)Nc2cnc(-n3nccn3)c(C(F)(F)F)c2)cnc2sc(C)nc12; target = CCKAR (Homo sapiens, UniProt P32238); test = ligand displacement, radioligand; conditions = 10 µM; inhibition = -0.5%
Compound = CS(=O)(=O)Nc1cccc(C=NOCc2ccc3nc(-c4ccccc4)c(Nc4ccc(C(=O)O)cc4)n3c2)c1; target = TDP1; test = enzyme activity, inhibitor; conditions = 100 µM, unpurified compound; inhibition = 7.1%
Compound = O=C1c2sc(-c3ccc(N4CCC(CO)CC4)nc3F)nc2CCN1c1cccnc1; target = RARA (Homo sapiens, UniProt P10276); test = ligand displacement, radioligand; conditions = 1 µM; inhibition = -7%
Compound = c1ccc(OC[C@H]2CN(CCN3CCc4ccccc43)CCO2)nc1; target = HTR4 (Homo sapiens, UniProt Q13639); test = radioligand binding; conditions = concentration not given; inhibition = -2.4%
Compound = Brc1ccccc1-c1nnc(CSc2nnnn2-c2ccccc2)o1; target = ADRB2 (Homo sapiens, UniProt P07550); test = ligand displacement, radioligand; conditions = 10 µM; inhibition = 1%
Compound = COc1ccc(Br)cc1C[N+](C)(C)CCCN1c2ccccc2CCc2ccc(Cl)cc21; target = Uncharacterized protein; test = enzyme activity, inhibitor, coupled colorimetric; conditions = 30 µM, added: E. coli pyrophosphatase coupling; inhibition = 39.9%
Compound = Cc1nc2c(F)cc(-c3nc(Nc4ccc(CNC(=O)CCCCCCC(=O)NO)cc4)ncc3F)cc2n1C(C)C; target = TSSK4 (Homo sapiens, UniProt Q6SA08); test = enzyme activity, inhibitor; conditions = 1 µM; inhibition = 30%
Compound = CC(=O)O[C@@]1(C)CN(Cc2ccccc2)[C@H]2C[C@@H]1CC(=O)[C@@H]2C; target = Tmem97 (Rattus norvegicus, UniProt Q5U3Y7); test = ligand displacement, radioligand; conditions = 1 µM; inhibition = 0%
Compound = Cc1cc(C=NOCc2ccc3nc(-c4ccccc4)c(Nc4ccc(C(=O)O)cc4)n3c2)c(C)n1-c1ccc(C(=O)O)cc1; target = TDP1; test = enzyme activity, inhibitor; conditions = 100 µM, unpurified compound; inhibition = 73.5%
Compound = CC(C)C(C)NC(=O)COC(=O)c1cc2c(s1)CCC2 (stereo not drawn); target = Protein tyrosine phosphatase type IVA 3, with CNNM4 CBS domain (PTP4A3, Homo sapiens, UniProt O75365); test = protein-protein interaction, HTRF; conditions = 10 µM; inhibition = 90.7 ± 2%
Compound = C/C=C/C(=O)Nc1ccc2nc(NCCCCCN(C)C)nc(NCCCCCCN(C)C)c2c1; target = PRMT8 (Homo sapiens, UniProt Q9NR22); test = enzyme activity, inhibitor, radiometric; conditions = 10 µM; inhibition = 37%
Compound = Cc1ccc2c(c1Br)C(O)(CC(=O)c1ccc3c(c1)OCO3)C(=O)N2 (stereo not drawn); target = ppa; test = enzyme activity; conditions = 30 µM; inhibition = -3.8%

A few entries again:
Compound = C=CC(=O)N1Cc2nc(-c3cc(-c4cc(Cl)cnc4Cl)c(F)cc3F)n(-c3ccncn3)c2C1; target = PIK3C2A; test = cell-free assay, inhibitor; conditions = 1 µM; inhibition = -4.5%
Compound = CC(=O)C1=C(c2ccc(OC(F)F)cc2)N(C(C)=O)n2cnnc2S1; target = ppa; test = inhibitor, counter-screen, coupling enzyme alone; conditions = 30 µM; inhibition = 33%
Compound = CC(=O)C1=C(C)Nc2ccccc2S1; target = ppa; test = inhibitor, counter-screen, coupling enzyme alone; conditions = 30 µM; inhibition = 31.5%
Compound = CN(C)c1nc(NCc2ccccc2F)c(/N=N/c2ccc(Cl)cc2)c(N(C)C)n1; target = OfChi-h; test = enzyme activity, inhibitor, fluorescence; conditions = 1 µM; inhibition = 91.1%
Compound = C[Si](C)(C)C[C@@H](CN)CC(=O)O; target = TACR3; test = ligand displacement, radioligand; conditions = 75 µM; inhibition = -5%
Compound = Cc1cc(C=NOCc2ccc3nc(-c4ccccc4)c(Nc4ccc(C(=O)O)cc4)n3c2)c(C)n1-c1ccc(C(=O)O)cc1; target = TDP1; test = enzyme activity, inhibitor; conditions = 100 µM, unpurified compound; inhibition = 73.5%
Compound = Cc1ccc2c(c1Br)C(O)(CC(=O)c1ccc3c(c1)OCO3)C(=O)N2 (stereo not drawn); target = ppa; test = enzyme activity; conditions = 30 µM; inhibition = -3.8%
